# Results gathered from unrelated publications.
# Every numbered part comes from another study and shows a few of its results, in no order.
# UniProt Q96GD4, sequence (whole entry, looked up): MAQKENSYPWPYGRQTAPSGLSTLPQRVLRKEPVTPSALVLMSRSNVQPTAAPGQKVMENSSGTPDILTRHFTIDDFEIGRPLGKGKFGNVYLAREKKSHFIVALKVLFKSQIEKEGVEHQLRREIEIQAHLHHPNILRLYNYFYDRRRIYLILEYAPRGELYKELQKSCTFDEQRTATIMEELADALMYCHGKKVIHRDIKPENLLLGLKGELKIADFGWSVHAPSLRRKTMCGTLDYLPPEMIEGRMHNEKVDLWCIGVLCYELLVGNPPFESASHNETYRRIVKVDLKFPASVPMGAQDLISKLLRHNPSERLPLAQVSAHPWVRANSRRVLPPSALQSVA
# UniProt Q15349, sequence (whole entry, looked up): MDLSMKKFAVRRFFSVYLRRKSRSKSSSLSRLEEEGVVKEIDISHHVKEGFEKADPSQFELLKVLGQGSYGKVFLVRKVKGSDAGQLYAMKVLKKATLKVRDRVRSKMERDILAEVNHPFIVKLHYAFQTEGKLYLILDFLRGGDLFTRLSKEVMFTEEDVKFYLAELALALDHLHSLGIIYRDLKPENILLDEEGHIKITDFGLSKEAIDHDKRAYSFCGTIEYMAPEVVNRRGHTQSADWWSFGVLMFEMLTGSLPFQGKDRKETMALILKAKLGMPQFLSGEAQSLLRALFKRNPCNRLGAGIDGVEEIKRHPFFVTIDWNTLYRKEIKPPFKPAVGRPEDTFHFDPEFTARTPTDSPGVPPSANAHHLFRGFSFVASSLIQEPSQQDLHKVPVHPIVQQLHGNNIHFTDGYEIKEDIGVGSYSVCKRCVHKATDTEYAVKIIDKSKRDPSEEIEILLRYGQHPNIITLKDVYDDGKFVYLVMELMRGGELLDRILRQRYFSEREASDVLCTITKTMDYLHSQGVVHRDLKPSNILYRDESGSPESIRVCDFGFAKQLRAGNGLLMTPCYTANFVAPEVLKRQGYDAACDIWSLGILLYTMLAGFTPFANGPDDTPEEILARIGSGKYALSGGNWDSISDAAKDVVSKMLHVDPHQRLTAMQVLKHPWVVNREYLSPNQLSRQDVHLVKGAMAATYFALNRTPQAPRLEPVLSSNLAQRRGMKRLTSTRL
# UniProt O75716, sequence (whole entry, looked up): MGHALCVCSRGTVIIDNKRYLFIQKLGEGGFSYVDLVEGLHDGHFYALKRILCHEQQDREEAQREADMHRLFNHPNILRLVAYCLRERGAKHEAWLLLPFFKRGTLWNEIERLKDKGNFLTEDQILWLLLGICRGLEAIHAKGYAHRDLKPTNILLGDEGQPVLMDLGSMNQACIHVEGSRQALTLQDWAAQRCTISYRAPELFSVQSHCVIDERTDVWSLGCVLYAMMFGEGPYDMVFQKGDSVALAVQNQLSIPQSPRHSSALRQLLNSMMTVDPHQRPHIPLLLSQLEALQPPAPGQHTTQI
# UniProt Q56UN5, sequence (whole entry, looked up): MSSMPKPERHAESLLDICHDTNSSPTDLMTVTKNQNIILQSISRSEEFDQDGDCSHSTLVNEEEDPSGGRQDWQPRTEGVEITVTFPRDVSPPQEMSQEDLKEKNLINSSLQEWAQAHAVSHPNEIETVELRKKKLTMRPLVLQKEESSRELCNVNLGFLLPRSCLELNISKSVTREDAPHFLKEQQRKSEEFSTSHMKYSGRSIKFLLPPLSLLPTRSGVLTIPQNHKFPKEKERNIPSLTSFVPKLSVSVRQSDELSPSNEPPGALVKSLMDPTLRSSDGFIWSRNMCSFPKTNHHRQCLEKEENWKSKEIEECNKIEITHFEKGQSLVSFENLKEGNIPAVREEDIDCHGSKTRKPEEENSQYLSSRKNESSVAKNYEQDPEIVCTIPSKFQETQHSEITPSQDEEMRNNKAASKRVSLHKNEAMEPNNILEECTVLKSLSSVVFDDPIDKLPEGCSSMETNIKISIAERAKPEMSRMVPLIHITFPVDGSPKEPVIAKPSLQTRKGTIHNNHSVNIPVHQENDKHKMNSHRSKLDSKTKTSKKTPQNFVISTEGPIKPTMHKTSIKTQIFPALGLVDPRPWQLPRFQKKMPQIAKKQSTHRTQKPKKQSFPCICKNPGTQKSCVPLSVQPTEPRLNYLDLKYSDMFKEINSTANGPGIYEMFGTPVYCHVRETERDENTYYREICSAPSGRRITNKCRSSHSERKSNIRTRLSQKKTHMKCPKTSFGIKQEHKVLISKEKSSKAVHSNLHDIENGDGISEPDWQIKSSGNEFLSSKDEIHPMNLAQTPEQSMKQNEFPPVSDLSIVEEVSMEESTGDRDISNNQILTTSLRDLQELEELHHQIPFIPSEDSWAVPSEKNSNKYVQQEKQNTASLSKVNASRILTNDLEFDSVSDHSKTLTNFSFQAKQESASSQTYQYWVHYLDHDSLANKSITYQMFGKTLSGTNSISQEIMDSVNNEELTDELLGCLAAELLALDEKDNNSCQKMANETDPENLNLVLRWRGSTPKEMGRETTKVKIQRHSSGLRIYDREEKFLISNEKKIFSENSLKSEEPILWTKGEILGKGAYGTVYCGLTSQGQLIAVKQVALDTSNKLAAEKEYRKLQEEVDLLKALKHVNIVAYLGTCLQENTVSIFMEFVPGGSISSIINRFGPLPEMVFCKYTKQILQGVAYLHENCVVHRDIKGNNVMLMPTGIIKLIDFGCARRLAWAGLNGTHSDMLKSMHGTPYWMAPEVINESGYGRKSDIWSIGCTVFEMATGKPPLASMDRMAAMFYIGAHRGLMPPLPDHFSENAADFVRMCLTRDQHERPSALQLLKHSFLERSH
# UniProt Q13555, sequence (whole entry, looked up): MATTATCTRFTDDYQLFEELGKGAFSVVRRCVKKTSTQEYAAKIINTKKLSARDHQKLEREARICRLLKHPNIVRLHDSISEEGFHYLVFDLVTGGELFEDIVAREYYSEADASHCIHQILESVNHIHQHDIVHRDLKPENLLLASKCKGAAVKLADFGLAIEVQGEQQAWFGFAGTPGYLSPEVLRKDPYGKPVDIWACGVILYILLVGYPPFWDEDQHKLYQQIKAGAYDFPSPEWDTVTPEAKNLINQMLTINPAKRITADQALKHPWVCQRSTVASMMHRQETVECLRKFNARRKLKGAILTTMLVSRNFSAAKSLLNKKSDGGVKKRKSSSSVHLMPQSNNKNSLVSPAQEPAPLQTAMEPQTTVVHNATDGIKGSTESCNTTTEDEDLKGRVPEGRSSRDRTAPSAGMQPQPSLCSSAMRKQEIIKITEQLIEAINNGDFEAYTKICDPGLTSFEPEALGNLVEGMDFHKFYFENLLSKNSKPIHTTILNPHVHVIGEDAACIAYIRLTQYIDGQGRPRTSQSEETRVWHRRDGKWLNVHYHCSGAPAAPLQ
# UniProt P52333, sequence (whole entry, looked up): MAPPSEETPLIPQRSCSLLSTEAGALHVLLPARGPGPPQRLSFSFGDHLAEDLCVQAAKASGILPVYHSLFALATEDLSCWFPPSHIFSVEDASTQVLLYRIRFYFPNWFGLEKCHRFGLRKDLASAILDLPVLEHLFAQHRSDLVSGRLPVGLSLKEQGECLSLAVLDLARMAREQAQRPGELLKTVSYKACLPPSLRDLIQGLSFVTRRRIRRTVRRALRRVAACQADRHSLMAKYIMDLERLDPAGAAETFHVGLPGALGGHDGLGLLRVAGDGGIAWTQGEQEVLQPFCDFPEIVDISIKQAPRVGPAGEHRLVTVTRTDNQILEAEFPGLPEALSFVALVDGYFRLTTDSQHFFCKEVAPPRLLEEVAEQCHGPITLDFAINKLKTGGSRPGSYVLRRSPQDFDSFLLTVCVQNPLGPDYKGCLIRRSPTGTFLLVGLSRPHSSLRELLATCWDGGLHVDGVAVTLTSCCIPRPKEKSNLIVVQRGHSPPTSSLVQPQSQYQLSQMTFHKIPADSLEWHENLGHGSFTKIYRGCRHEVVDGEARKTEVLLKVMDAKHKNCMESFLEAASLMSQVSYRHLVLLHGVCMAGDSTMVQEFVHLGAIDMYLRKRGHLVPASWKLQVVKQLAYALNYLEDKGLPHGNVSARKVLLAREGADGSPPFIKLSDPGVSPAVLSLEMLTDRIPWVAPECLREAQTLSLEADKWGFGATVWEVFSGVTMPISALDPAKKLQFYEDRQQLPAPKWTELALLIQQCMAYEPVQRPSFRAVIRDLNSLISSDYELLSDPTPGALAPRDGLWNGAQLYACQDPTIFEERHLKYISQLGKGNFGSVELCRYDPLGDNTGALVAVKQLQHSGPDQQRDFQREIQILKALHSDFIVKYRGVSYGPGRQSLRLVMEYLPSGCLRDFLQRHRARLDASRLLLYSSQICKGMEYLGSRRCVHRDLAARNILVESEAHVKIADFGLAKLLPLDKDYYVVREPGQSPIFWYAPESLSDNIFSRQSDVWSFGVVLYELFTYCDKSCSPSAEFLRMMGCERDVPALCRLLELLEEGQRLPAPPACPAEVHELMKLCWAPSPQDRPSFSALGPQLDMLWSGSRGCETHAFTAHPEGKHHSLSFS
# UniProt P36507, sequence (whole entry, looked up): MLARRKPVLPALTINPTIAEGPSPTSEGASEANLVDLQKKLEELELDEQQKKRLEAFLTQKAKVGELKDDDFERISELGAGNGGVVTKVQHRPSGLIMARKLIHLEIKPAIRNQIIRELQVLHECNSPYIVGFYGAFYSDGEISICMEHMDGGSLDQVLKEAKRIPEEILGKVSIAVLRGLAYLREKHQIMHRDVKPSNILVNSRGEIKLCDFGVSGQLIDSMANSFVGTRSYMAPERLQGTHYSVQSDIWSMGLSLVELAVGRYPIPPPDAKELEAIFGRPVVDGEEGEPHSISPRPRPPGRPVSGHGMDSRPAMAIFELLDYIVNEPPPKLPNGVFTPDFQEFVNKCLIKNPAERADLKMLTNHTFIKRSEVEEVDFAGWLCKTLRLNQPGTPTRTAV

# Block 1
# Cell line: mouse MPNST tumor cells
# Method: high-content immunofluorescence imaging
# Refers to: nuclear SOX9
# Tested at: 10 µM
# Time: 12 h
# Setting: mean of 2 replicates
# Relative to: DMSO control
# Reading: higher = more nuclear SOX9
SMILES,nuclear SOX9 intensity
COc1ccc(-c2nnc(Nc3nc4c(OC)cccc4s3)o2)cc1,91 % of DMSO
CN(CCCN1c2ccccc2CCc2ccccc21)CC(=O)c1ccc(Cl)cc1,95.6 % of DMSO
CN1CC(=O)N=C1NC(=O)Nc1cccc(Cl)c1,93.8 % of DMSO
N[C@@H](C(=O)N[C@@H]1C(=O)N2C(C(=O)O)=C(Cl)CC[C@H]12)c1ccccc1,95.3 % of DMSO
N=C(N)N1CCc2ccccc2C1,98.9 % of DMSO
C=CCNC(=O)c1cc([N+](=O)[O-])cc2c(=O)[nH]c(Nc3ccc(Cl)c(Cl)c3)nc12,90.7 % of DMSO

# Block 2
# Structure (SMILES): CC(C)S(=O)(=O)c1ccc2nccc(Nc3ccc4sc(C5CCCC5)nc4c3)c2c1.Cl
# Observed: kinase activity
# Action: inhibitor
# Tested at: 1 µM
target,remaining activity [%]
"Ephrin type-B receptor 3 (EPHB3, Homo sapiens, UniProt P54753)",92
"Calcium/calmodulin-dependent protein kinase type II subunit gamma (CAMK2G, Homo sapiens, UniProt Q13555)",102
"Tyrosine-protein kinase Fer (FER, Homo sapiens, UniProt P16591)",91
"Receptor tyrosine-protein kinase erbB-2 (ERBB2, Homo sapiens, UniProt P04626)",96
"Serine/threonine-protein kinase 16 (STK16, Homo sapiens, UniProt O75716)",91
"Mitogen-activated protein kinase kinase kinase 20 (MAP3K20, Homo sapiens, UniProt Q9NYL2)",71
"Aurora kinase B (AURKB, Homo sapiens, UniProt Q96GD4)",98

# Block 3
# Structure (SMILES): O=Nc1c(-c2c(O)[nH]c3ccccc23)[nH]c2ccccc12
# Observed: enzyme activity
# Action: inhibitor
# Tested at: 0.5 µM
# Relative to: control
target,remaining activity [%]
"Serine/threonine-protein kinase TBK1 (TBK1, Homo sapiens, UniProt Q9UHD2)",53.6
"Mitogen-activated protein kinase kinase kinase 14 (MAP3K14, Homo sapiens, UniProt Q99558)",88.7
"Activin receptor type-1B (ACVR1B, Homo sapiens, UniProt P36896)",102
"Tyrosine-protein kinase ABL2 (ABL2, Homo sapiens, UniProt P42684)",60.3
"Mitogen-activated protein kinase 3 (MAPK3, Homo sapiens, UniProt P27361)",90.4
"Dual specificity mitogen-activated protein kinase kinase 2 (MAP2K2, Homo sapiens, UniProt P36507)",100
"Tyrosine-protein kinase JAK3 (JAK3, Homo sapiens, UniProt P52333)",51.5
"Serine/threonine-protein kinase A-Raf (ARAF, Homo sapiens, UniProt P10398)",100
"Fibroblast growth factor receptor 1 (FGFR1, Homo sapiens, UniProt P11362)",52.2
"Wee1-like protein kinase (WEE1, Homo sapiens, UniProt P30291)",87.1
"Mitogen-activated protein kinase kinase kinase 5 (MAP3K5, Homo sapiens, UniProt Q99683)",84.3
"Ribosomal protein S6 kinase alpha-2 (RPS6KA2, Homo sapiens, UniProt Q15349)",42.6
"Fibroblast growth factor receptor 3 (FGFR3, Homo sapiens, UniProt P22607)",70.4

# Block 4
# SMILES: CS(=O)(=O)NCC[C@H](NC(=O)c1cncc2c1cnn2-c1ccc(F)cc1)c1ccnc(S(C)(=O)=O)c1
# Observed: cell-free assay
# Method: competition with immobilised ligand
# Tested at: 1 µM
target,remaining binding
"Casein kinase I isoform delta (CSNK1D, Homo sapiens, UniProt P48730)",100%
"Hepatocyte growth factor receptor (MET, Homo sapiens, UniProt P08581, Y1235D)",93%
"Cyclin-dependent kinase 17 (CDK17, Homo sapiens, UniProt Q00537)",100%
"Epidermal growth factor receptor (EGFR, Homo sapiens, UniProt P00533, T790M)",90%
"Dual specificity protein kinase TTK (TTK, Homo sapiens, UniProt P33981)",91%
"Mitogen-activated protein kinase kinase kinase 19 (MAP3K19, Homo sapiens, UniProt Q56UN5)",98%
"Serine/threonine-protein kinase Nek5 (NEK5, Homo sapiens, UniProt Q6P3R8)",100%

# For quick reference, copied from above (block 3):
target,remaining activity [%]
"Mitogen-activated protein kinase 3 (MAPK3, Homo sapiens, UniProt P27361)",90.4
"Serine/threonine-protein kinase A-Raf (ARAF, Homo sapiens, UniProt P10398)",100
"Fibroblast growth factor receptor 1 (FGFR1, Homo sapiens, UniProt P11362)",52.2
"Tyrosine-protein kinase JAK3 (JAK3, Homo sapiens, UniProt P52333)",51.5
"Dual specificity mitogen-activated protein kinase kinase 2 (MAP2K2, Homo sapiens, UniProt P36507)",100
"Ribosomal protein S6 kinase alpha-2 (RPS6KA2, Homo sapiens, UniProt Q15349)",42.6
